Experimental data of several laboratories.
Each line is one published result; not all experiments were run side by side. Numbers after ± are the reported error.

| SMILES | organism | assay | test system | setting | EC50 |
| --- | --- | --- | --- | --- | --- |
| Nc1ncnc2c1c(F)cn2[C@@H]1O[C@H](CO)[C@@H](O)[C@H]1O | Trypanosoma vivax | parasite growth, resazurin |  | 24 h | 38 nM |
| CCCCCCCCCC(=O)OCC1OC(n2cc(C)c(=O)[nH]c2=O)CC1N(C)C (centres unmarked) | feline herpesvirus | viral replication | CRFK |  | > 50 nM |
| C[C@@H](O)[C@H](NC(=O)[C@@H]1CCCN1C(=O)[C@H](Cc1ccc(O)cc1)NC(=O)CNC(=O)[C@H](CCCNC(=N)N)NC(=O)CNC(=O)[C@H](CO)NC(=O)[C@H](Cc1c[nH]cn1)NC(=O)OCC1c2ccccc2-c2ccccc21)C(=O)N[C@@H](CO)C(=O)N1CCC[C@H]1C(=O)N[C@@H](Cc1c[nH]c2ccccc12)C(=O)N[C@@H](CO)C(=O)O | bacteriophage T1 | phage inactivation, plaque count |  | 3 h, 37 °C, 50% phages deactivated | > 200 µg/mL |
| CN(C)c1ccc(C=Nn2c(-c3ccccc3)nc3ccccc3c2=O)cc1 | feline herpesvirus | viral replication, MTS | CRFK |  | > 100 µg/mL |
| CN(C(=O)c1ccn2ncc(-c3ccc(C(N)=O)cc3)c2c1)C1CCC(C#N)CC1 (centres unmarked) | Cryptosporidium parvum | cytopathic effect | HCT-8 |  | > 20000 nM |
| Cc1cccc(-c2cc(C#N)cc(Oc3c(C(F)(F)F)ccn(Cc4n[nH]c(=O)n4C)c3=O)c2)c1 | human immunodeficiency virus 1 | viral cytopathic effect | MT-4, K103N Y181C mutant |  | 260 ± 120 nM |
| N#Cc1cccc(-c2ccccc2C(N)=O)c1 | Bunyamwera virus | minigenome activity | BSR-T7 |  | > 100000 nM |
| CC(=O)CCC1C(=O)NC(C(C)C)C(=O)NC(Cc2cccc(O)c2)C(=O)N2CCCC(N2)C(=O)OC(C(C)=CC=CC(=O)N2CCCCO2)CC=CC=CC(O)C(C)C1O (centres unmarked) | hepatitis C virus genotype 1b | luciferase | Huh-5-2 replicon | 4 days | 125 ± 22 nM |
| CNC(=O)c1ccc(-c2cnc3cnc(C(=O)N(C)c4ccc(Cl)cc4)cn23)cc1 | Cryptosporidium parvum | cytopathic effect | HCT-8 |  | 96 ± 44 nM |
| O=C(NCc1cccc2[nH]cc(C(=O)C(F)(F)F)c12)c1cn(Cc2ccc(F)cc2)cc(O)c1=O | Human betaherpesvirus 5 | viral replication, inhibitor |  | 7 days | 1600 nM |
| CCOc1cccc(NC(=O)CSc2cn(C(=O)OC(C)(C)C)c3ccccc23)c1 | human coronavirus NL63 | viral cytopathic effect, MTS | LLC-MK2 | 120 h | 12500 nM |
| CNC(=O)c1ccc(-c2cnn3ccc(C(=O)N(c4ccc(C#N)cn4)C(C)(C)C)cc23)cc1 | Cryptosporidium parvum | cytopathic effect | HCT-8 |  | 1950 ± 340 nM |
| CN(C)CCNC(=O)c1cc(-c2ccccc2)nc2ccccc12 | Coxsackievirus B3 | cytopathic effect | Vero C1008 |  | 300 nM |
| O=C(NCc1ccc(F)cc1F)c1cn(Cc2ccc(F)cc2)cc(O)c1=O | Human betaherpesvirus 5 | viral replication, inhibitor |  | 7 days | 860 nM |
| Cc1ccc(N2CC3CC(C2)N3C)cc1C(=O)NC1(c2ccc3c4c(cccc24)C(=O)N3C)CC1 | human coronavirus NL63 | viral replication |  |  | 81.6 nM |
| CC(=O)CCC1C(=O)NC(C(C)C)C(=O)NC(Cc2cc(O)cc(F)c2)C(=O)N2CCCC(N2)C(=O)OC(C(C)=CC=CC(=O)N2CCCCO2)CC=CC=CC(O)C(C)C1O (centres unmarked) | hepatitis C virus genotype 1b | item: HCV RNA | Huh-7 replicon | 72 h | 13 ± 1 nM |
| COc1ccccc1-c1n[nH]c2nc(N[C@H]3CC[C@H](NS(=O)(=O)CC(C)C)CC3)ncc12 | Leishmania donovani |  | LdBOB CRK12 G572D overexpressing, promastigotes |  | 1.99 ± 0.002 nM |

Some of these lines once more:
| SMILES | organism | assay | test system | setting | EC50 |
| --- | --- | --- | --- | --- | --- |
| Cc1ccc(N2CC3CC(C2)N3C)cc1C(=O)NC1(c2ccc3c4c(cccc24)C(=O)N3C)CC1 | human coronavirus NL63 | viral replication |  |  | 81.6 nM |
| CC(=O)CCC1C(=O)NC(C(C)C)C(=O)NC(Cc2cc(O)cc(F)c2)C(=O)N2CCCC(N2)C(=O)OC(C(C)=CC=CC(=O)N2CCCCO2)CC=CC=CC(O)C(C)C1O (centres unmarked) | hepatitis C virus genotype 1b | item: HCV RNA | Huh-7 replicon | 72 h | 13 ± 1 nM |
| COc1ccccc1-c1n[nH]c2nc(N[C@H]3CC[C@H](NS(=O)(=O)CC(C)C)CC3)ncc12 | Leishmania donovani |  | LdBOB CRK12 G572D overexpressing, promastigotes |  | 1.99 ± 0.002 nM |
